Measurements gathered from unrelated publications.
A part holds a random share of what one study measured.
Sequence of UniProt P10721 (whole entry, unmodified, looked up): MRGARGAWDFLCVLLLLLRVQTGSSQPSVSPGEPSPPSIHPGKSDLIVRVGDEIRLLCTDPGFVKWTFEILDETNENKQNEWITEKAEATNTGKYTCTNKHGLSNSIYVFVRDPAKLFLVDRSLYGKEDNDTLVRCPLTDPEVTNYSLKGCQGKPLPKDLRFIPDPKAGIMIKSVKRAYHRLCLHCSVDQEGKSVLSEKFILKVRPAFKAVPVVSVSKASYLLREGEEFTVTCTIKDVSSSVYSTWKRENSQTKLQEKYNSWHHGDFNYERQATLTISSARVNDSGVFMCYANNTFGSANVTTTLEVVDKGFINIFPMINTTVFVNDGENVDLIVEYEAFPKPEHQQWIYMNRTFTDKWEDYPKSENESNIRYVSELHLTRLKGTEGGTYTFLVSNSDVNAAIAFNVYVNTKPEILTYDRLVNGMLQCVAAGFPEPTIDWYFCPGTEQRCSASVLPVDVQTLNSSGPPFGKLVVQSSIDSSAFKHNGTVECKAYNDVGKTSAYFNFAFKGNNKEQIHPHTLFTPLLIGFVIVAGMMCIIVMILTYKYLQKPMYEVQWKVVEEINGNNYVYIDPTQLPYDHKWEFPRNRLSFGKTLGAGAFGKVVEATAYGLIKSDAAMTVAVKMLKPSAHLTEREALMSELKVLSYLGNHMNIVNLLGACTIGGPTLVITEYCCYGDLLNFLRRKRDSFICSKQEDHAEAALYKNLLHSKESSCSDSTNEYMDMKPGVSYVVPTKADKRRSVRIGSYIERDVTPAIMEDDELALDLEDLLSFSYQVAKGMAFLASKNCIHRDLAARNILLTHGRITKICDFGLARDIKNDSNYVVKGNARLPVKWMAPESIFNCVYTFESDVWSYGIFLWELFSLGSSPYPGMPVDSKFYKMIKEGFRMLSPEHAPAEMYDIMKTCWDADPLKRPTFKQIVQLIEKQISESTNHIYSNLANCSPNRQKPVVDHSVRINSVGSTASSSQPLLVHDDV
Sequence of UniProt P25024 (whole entry, looked up): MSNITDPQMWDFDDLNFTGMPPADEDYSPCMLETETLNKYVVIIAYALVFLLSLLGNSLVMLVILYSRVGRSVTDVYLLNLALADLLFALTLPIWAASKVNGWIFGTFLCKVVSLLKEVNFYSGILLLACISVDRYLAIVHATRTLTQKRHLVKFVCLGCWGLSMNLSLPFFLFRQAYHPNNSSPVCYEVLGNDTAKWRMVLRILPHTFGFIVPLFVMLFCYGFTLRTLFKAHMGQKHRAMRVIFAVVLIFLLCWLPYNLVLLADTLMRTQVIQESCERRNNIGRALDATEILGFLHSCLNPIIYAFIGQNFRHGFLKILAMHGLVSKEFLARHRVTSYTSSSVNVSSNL
Sequence of UniProt P14616 (whole entry, looked up): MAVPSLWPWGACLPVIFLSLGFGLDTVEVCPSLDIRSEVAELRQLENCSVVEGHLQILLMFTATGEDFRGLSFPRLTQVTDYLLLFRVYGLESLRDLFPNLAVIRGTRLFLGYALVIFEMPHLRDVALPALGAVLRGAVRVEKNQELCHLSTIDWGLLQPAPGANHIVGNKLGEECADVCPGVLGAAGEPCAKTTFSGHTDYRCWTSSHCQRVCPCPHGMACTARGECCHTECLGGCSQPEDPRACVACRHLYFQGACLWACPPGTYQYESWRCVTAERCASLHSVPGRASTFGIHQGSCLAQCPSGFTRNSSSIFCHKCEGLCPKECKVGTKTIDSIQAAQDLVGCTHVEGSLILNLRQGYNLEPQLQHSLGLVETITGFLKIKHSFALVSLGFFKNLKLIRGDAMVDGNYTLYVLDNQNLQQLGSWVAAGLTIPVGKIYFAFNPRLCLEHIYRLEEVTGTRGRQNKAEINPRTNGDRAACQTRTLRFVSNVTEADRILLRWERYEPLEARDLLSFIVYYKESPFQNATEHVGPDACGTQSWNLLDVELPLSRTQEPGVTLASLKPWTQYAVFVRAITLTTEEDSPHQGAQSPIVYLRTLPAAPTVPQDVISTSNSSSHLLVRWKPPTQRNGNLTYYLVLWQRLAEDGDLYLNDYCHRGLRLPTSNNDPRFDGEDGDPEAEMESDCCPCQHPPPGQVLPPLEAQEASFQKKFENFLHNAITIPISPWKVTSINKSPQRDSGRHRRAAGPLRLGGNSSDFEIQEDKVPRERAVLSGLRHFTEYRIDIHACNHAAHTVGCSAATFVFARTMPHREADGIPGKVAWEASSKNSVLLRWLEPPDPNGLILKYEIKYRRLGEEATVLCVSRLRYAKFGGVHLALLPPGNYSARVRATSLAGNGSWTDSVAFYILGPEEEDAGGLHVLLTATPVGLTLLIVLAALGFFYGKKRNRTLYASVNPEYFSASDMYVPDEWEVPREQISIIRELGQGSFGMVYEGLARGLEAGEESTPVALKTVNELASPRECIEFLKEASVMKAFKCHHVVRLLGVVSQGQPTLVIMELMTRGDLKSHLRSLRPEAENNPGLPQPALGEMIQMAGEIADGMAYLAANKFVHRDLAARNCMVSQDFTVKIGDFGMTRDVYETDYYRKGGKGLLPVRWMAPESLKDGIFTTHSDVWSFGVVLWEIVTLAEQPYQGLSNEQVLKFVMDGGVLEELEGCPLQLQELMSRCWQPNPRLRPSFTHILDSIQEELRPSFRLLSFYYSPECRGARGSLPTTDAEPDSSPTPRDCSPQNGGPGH
Sequence of UniProt Q9NQ84 (whole entry, looked up): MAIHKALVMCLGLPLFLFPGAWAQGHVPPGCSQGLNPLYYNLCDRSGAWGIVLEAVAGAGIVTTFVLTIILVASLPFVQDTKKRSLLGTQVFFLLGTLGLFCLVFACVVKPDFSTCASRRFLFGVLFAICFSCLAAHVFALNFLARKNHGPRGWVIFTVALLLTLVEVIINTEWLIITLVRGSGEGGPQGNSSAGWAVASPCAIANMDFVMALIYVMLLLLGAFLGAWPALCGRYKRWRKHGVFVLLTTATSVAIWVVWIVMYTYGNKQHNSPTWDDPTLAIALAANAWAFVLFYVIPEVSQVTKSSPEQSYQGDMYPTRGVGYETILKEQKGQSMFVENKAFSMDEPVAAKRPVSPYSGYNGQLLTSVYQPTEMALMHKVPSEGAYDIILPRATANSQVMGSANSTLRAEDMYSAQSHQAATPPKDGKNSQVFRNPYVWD
Sequence of UniProt P07949 (whole entry, unmodified, looked up): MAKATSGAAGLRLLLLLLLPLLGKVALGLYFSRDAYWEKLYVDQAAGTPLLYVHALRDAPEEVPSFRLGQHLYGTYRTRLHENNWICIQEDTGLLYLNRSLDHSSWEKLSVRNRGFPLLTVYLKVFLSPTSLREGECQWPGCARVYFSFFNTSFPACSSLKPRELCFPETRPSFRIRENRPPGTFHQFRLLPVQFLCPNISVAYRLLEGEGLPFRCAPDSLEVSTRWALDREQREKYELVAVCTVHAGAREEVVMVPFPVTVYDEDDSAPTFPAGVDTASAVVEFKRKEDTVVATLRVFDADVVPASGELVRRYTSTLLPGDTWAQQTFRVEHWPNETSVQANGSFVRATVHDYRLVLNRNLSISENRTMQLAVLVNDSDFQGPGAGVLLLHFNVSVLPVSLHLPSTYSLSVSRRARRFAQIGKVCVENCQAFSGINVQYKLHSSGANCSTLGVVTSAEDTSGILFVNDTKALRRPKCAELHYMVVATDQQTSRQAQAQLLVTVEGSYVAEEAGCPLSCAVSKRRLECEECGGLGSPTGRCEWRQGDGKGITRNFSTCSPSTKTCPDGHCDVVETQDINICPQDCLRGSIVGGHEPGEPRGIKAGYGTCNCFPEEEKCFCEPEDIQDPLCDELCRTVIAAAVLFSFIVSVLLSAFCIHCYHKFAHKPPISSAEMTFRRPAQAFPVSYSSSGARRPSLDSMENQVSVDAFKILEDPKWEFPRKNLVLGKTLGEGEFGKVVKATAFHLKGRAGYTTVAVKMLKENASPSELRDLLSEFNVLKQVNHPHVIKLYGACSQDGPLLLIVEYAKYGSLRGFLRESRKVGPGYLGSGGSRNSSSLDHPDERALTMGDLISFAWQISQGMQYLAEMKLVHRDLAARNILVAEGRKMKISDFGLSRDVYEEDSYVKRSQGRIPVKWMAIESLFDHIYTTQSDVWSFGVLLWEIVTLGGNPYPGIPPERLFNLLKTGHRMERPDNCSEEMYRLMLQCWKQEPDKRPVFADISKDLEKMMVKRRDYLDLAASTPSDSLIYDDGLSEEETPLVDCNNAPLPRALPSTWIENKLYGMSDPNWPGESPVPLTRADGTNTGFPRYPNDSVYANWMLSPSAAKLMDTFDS
Sequence of UniProt Q9UJ42 (whole entry, looked up): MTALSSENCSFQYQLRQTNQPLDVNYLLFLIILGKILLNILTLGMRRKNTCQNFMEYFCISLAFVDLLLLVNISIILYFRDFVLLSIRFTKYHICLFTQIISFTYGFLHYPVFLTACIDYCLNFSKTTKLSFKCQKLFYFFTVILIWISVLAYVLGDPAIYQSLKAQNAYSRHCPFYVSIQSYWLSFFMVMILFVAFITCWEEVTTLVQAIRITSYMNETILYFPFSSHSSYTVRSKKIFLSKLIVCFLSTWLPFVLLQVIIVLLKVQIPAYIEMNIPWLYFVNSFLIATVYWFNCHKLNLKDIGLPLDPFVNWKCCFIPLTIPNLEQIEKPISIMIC

Block 1 — action: inhibitor; tested at: 10 µM; baseline: control
Target: Diamine acetyltransferase 1 (Homo sapiens, UniProt P21673)
Residues (P21673 1-171): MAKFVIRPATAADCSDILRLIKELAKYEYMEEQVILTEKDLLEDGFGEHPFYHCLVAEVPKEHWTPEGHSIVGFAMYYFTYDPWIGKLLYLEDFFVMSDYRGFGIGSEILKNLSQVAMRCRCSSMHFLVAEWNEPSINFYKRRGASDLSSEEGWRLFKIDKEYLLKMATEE
The remaining activity of CCCCCCCCCCCCCCCCCCOC(=O)[C@@]1(C)CC[C@]2(C)CC[C@]3(C)C(=CC(=O)[C@@H]4[C@@]5(C)CC[C@H](O)C(C)(C)[C@@H]5CC[C@]43C)[C@@H]2C1 is reported as 91.1%.
COc1cc(CCC(=O)CC(O)CCc2ccc(O)c(OC)c2)ccc1O (centres unmarked) has a remaining activity of 90.1%.
The remaining activity of C=C(C)[C@@H]1CCC2=CC(=O)C[C@@H](C)[C@]2(C)C1 is reported as 100%.
With O=c1[nH]cnc2c1ncn2[C@@H]1O[C@H](CO)[C@@H](O)[C@H]1O the remaining activity was 85.7%.
With CCCCCCCCCCCC(=O)OC the remaining activity was 76.7%.
With COC(=O)c1ccc(O)c(O)c1 the remaining activity was 107%.
C=C(CC[C@@H](C(=O)O)[C@H]1CC[C@@]2(C)C3=C(CC[C@]12C)[C@@]1(C)CC[C@H](O)C(C)(C)[C@@H]1CC3)C(C)C gave a remaining activity of 110%.
The remaining activity of Cc1cc(=O)oc2cc(O)ccc12 is reported as 104%.
CC1(C)CC[C@]2(C(=O)O)CC[C@]3(C)C(=CC[C@@H]4[C@@]5(C)CCC(=O)C(C)(C)[C@@H]5CC[C@]43C)[C@@H]2C1 has a remaining activity of 102%.
For C=CCc1ccc(OC)c(OC)c1, the remaining activity was 102%.
CC1(C)CC[C@]2(C(=O)O)CC[C@]3(C)C(=CC[C@@H]4[C@@]5(C)C[C@@H](O)[C@H](O)C(C)(C)[C@@H]5CC[C@]43C)[C@@H]2C1 gave a remaining activity of 88.6%.
COc1cc2ccc(=O)oc2cc1O has a remaining activity of 78.5%.
For C=C[C@H]1[C@H](O[C@@H]2O[C@H](CO)[C@@H](O)[C@H](O)[C@H]2O)OC=C(C(=O)O)[C@H]1CC(=O)O, the remaining activity was 92.6%.
With C[N+](C)(C)C[C@H](O)CC(=O)[O-] the remaining activity was 94.3%.
For Nc1ncnc2c1ncn2[C@@H]1O[C@H](COP(=O)(O)O)[C@@H](O)[C@H]1O, the remaining activity was 86.6%.
The remaining activity of CC1(C)[C@@H](O)CC[C@]2(C)[C@H]3C(=O)C=C4[C@@H]5C[C@@](C)(C(=O)O)CC[C@]5(C)CC[C@@]4(C)[C@]3(C)CC[C@@H]12 is reported as 89.4%.
The remaining activity of COC(=O)C=Cc1ccc(O)cc1 is reported as 111%.

Block 2 — effect on: cell-free assay; method: competition with immobilised ligand; tested at: 1 µM
SMILES: COc1ccc2c(c1)O[C@@H](c1ccc(OC)c(OC)c1)C[C@H]2NC(=O)C1(c2ccc3c(c2)OC(F)(F)O3)CC1
MAST1 (Homo sapiens, UniProt Q9Y2H9) — remaining binding: 100%.
It gave 80% for remaining binding (KDR (Homo sapiens, UniProt P35968)).
The remaining binding was 82% (CDKL1 (Homo sapiens, UniProt Q00532)).
The remaining binding was 94% (SRMS (Homo sapiens, UniProt Q9H3Y6)).
It gave 82% for remaining binding (IRAK4 (Homo sapiens, UniProt Q9NWZ3)).
KIT (Homo sapiens, UniProt P10721, T670I/V559D) — remaining binding: 99%.
For MAP3K10 (Homo sapiens, UniProt Q02779): remaining binding read 100%.
The remaining binding was 91% (PIM1 (Homo sapiens, UniProt P11309)).
The remaining binding was 100% (GRK7 (Homo sapiens, UniProt Q8WTQ7)).
Mast/stem cell growth factor receptor Kit, autoinhibited (KIT, Homo sapiens, UniProt P10721) — remaining binding: 88%.
For PRKACB (Homo sapiens, UniProt P22694): remaining binding read 95%.
For TNIK (Homo sapiens, UniProt Q9UKE5): remaining binding read 71%.
For PIK3CA (Homo sapiens, UniProt P42336, E545A): remaining binding read 94%.
It gave 100% for remaining binding (WEE2 (Homo sapiens, UniProt P0C1S8)).
For FGR (Homo sapiens, UniProt P09769): remaining binding read 94%.
It gave 100% for remaining binding (MARK3 (Homo sapiens, UniProt P27448)).
For EGFR (Homo sapiens, UniProt P00533, G719S): remaining binding read 91%.
The remaining binding was 95% (RET (Homo sapiens, UniProt P07949, V804L)).
The remaining binding was 87% (PAK3 (Homo sapiens, UniProt O75914)).
STK17A (Homo sapiens, UniProt Q9UEE5) — remaining binding: 100%.
MAPK10 (Homo sapiens, UniProt P53779) — remaining binding: 99%.
INSRR (Homo sapiens, UniProt P14616) — remaining binding: 100%.

Block 3 — SMILES: CC(C)CN(C)c1nc(N)c(C(=O)N=C(N)N)nc1Cl; effect on: β-arrestin recruitment; action: agonist; method: PRESTO-Tango; tested at: 10 µM; baseline: untreated
The “fold over basal” was 1.17 (HTR1B (Homo sapiens, UniProt P28222)).
For GRM4 (Homo sapiens, UniProt Q14833): “fold over basal” read 0.86 fold.
GPRC5C (Homo sapiens, UniProt Q9NQ84) — “fold over basal”: 0.67.
The “fold over basal” was 1.89 (Mas-related G-protein coupled receptor member X4 (Homo sapiens, UniProt Q96LA9)).
Trace amine-associated receptor 9 (TAAR9, Homo sapiens, UniProt Q96RI9) — “fold over basal”: 0.49 fold.
It gave 0.26 for “fold over basal” (NPY4R (Homo sapiens, UniProt P50391)).
The “fold over basal” was 0.93 (CXCR1 (Homo sapiens, UniProt P25024)).
It gave 0.76 for “fold over basal” (GPR119 (Homo sapiens, UniProt Q8TDV5)).
It gave 0.89 for “fold over basal” (NPY1R (Homo sapiens, UniProt P25929)).
It gave 0.76 for “fold over basal” (Probable G-protein coupled receptor 160 (GPR160, Homo sapiens, UniProt Q9UJ42)).
The “fold over basal” was 1.09 (Probable G-protein coupled receptor 173 (GPR173, Homo sapiens, UniProt Q9NS66)).

Block 4 — effect on: enzyme activity; action: inhibitor; tested at: 10 µM
Target: Calcium/calmodulin-dependent protein kinase type II subunit alpha (CAMK2A, Homo sapiens, UniProt Q9UQM7)
Sequence of UniProt Q9UQM7 (whole entry, looked up): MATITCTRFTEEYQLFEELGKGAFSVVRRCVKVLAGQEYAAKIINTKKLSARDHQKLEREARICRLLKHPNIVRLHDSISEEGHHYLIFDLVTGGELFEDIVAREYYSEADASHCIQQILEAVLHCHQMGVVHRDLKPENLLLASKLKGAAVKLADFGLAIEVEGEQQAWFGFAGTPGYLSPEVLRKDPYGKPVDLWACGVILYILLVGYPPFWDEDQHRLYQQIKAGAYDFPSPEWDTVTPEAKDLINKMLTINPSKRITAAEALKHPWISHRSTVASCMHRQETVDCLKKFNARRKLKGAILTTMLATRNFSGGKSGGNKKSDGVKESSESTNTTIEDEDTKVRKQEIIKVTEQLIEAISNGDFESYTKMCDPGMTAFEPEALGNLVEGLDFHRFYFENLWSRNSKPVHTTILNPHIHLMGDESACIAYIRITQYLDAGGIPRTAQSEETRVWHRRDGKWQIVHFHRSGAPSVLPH
The inhibition of COc1ccc(-c2cc(=O)c3ccccc3o2)cc1OC is reported as -38%.
For COc1cc([C@H]2c3cc(O)c(OC)cc3C[C@@H](CO)[C@@H]2CO)ccc1O, the inhibition was 18%.
CN[C@@H]1CCc2[nH]c3ccc(C(N)=O)cc3c2C1 gave an inhibition of -3%.
With O=C1C[C@@H](c2ccc(O)cc2)Oc2cc(O[C@@H]3O[C@H](CO)[C@@H](O)[C@H](O)[C@H]3O[C@@H]3OC[C@](O)(CO)[C@H]3O)ccc21 the inhibition was 12%.
The inhibition of COc1cc(C=CC(=O)O)cc(OC)c1O is reported as 2%.
With O=C1NC(c2ccccc2)(c2ccccc2)C(=O)N1COP(=O)(O)O the inhibition was -6%.
The inhibition of CC(C)CC(=O)O[C@H](CC(=O)[O-])C[N+](C)(C)C is reported as -19%.
C/C1=C\CC[C@]23O[C@H]2[C@@H](OC3=O)c2c(C)coc2C1 has an inhibition of -23%.
For O=C(N=c1c(Cl)cn(O)cc1Cl)c1ccc(OC(F)F)c(OCC2CC2)c1, the inhibition was 12%.
CC1(C)O[C@@H]2[C@@H](CO[C@@]3(COS(N)(=O)=O)OC(C)(C)O[C@@H]23)O1 gave an inhibition of -1%.
C=CCN1CCCC1CNC(=O)c1cc2nn[nH]c2cc1OC (centres unmarked) gave an inhibition of -10%.
CC(C)=CCc1cc(C(=O)/C=C/c2ccc(O)cc2)c(O)cc1O has an inhibition of 11%.

A few entries again (block 2):
It gave 100% for remaining binding (MARK3 (Homo sapiens, UniProt P27448)).
The remaining binding was 82% (CDKL1 (Homo sapiens, UniProt Q00532)).
For EGFR (Homo sapiens, UniProt P00533, G719S): remaining binding read 91%.
STK17A (Homo sapiens, UniProt Q9UEE5) — remaining binding: 100%.
